# Results from different studies.
# Each numbered part is a random draw from the data of one study; scales do not carry over between parts.
# UniProt Q8IVH8, sequence (whole entry, looked up): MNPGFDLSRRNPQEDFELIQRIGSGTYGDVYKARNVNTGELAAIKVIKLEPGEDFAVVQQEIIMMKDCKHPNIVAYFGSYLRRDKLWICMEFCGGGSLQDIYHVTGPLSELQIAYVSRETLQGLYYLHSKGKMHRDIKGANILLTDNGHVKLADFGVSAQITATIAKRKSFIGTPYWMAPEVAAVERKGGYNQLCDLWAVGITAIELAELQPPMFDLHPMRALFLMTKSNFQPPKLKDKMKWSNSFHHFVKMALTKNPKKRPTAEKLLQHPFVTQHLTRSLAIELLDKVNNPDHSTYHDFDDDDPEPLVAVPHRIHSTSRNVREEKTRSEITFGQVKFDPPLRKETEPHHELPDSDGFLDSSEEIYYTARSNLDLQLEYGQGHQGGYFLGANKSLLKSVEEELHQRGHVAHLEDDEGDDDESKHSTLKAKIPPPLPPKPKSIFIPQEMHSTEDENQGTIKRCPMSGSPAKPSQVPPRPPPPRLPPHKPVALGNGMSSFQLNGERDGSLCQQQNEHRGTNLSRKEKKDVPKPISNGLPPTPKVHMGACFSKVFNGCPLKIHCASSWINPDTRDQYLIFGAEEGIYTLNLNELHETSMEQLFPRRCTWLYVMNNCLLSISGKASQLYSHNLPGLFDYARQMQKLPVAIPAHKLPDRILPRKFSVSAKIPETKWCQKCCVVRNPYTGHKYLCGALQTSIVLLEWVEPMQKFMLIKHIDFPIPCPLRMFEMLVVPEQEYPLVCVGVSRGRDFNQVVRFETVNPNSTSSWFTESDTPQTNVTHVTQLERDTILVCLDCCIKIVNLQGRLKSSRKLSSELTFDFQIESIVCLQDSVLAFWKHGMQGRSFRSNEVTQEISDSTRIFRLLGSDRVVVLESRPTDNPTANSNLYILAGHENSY
# UniProt P00519, sequence (whole entry, unmodified, looked up): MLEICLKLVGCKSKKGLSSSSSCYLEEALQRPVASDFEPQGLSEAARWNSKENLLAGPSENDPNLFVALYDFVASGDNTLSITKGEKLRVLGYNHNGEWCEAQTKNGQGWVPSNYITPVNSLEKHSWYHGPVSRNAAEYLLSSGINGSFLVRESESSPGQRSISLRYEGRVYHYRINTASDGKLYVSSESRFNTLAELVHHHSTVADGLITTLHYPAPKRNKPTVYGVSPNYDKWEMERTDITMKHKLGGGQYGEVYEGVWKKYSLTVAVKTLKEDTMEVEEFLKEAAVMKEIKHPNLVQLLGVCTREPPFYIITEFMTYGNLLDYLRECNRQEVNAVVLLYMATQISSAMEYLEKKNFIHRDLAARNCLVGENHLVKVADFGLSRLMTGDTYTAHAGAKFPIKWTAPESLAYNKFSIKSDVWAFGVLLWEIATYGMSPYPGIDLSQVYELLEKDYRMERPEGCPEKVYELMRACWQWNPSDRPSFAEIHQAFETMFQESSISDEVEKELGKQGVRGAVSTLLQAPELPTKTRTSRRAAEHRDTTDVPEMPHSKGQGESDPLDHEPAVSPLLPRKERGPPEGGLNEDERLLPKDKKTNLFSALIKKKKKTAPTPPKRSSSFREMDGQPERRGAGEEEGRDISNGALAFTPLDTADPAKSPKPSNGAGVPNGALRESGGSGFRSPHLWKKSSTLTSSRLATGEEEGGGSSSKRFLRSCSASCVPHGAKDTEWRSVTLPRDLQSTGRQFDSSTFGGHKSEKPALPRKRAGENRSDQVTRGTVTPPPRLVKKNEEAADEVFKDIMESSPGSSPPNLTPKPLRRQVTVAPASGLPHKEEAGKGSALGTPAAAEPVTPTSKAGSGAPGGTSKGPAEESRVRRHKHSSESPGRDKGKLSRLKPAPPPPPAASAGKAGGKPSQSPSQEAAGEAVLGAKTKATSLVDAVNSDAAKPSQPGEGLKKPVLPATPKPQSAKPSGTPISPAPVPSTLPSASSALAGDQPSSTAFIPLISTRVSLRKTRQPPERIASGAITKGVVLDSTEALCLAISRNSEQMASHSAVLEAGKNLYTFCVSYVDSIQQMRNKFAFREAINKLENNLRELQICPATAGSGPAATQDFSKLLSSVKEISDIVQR
# UniProt O43318, sequence (whole entry, looked up): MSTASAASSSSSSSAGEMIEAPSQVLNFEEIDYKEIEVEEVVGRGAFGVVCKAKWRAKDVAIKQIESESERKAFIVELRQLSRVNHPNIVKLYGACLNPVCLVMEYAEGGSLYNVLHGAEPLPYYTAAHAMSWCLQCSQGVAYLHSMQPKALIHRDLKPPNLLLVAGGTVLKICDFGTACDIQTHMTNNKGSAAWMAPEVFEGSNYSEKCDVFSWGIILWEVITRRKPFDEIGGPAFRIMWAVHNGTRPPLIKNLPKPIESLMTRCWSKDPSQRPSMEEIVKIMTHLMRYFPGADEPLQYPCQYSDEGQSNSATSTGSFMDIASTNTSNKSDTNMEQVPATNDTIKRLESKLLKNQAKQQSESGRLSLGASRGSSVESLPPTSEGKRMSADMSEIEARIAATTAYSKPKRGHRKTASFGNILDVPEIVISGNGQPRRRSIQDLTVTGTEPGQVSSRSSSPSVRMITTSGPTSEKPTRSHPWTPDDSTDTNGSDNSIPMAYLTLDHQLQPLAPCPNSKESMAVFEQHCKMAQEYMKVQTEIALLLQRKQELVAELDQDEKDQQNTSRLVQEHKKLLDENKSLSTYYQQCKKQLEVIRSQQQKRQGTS
# UniProt P07949, sequence (whole entry, unmodified, looked up): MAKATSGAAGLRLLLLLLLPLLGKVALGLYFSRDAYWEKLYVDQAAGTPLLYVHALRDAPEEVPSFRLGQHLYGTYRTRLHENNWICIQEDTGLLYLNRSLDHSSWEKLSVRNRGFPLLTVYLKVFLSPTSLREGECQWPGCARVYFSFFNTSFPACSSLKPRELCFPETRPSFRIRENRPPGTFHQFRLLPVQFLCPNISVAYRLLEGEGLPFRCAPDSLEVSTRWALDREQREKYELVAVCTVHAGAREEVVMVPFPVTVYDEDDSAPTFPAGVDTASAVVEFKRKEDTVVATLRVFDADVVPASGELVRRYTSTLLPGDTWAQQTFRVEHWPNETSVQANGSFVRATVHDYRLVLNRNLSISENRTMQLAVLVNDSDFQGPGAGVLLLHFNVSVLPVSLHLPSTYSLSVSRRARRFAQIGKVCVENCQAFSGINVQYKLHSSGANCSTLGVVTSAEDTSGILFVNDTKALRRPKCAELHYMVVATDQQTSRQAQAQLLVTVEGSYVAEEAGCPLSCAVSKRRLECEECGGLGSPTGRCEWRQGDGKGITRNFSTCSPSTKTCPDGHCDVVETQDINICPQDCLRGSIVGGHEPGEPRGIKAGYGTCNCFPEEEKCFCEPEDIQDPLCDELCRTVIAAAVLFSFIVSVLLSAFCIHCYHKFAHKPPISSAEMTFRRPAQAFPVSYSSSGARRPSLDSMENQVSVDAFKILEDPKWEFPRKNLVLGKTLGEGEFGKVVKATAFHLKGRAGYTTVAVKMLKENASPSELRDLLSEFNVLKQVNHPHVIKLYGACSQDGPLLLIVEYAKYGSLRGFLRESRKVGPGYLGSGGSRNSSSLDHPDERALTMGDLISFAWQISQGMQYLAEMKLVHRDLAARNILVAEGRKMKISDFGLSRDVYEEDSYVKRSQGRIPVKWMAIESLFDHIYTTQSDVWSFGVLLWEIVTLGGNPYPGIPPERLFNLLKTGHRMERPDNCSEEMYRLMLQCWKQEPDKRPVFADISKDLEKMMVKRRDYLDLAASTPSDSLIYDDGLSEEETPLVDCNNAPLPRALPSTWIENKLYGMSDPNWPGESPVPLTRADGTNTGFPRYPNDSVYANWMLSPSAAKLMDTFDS
# UniProt Q13882, sequence (whole entry, looked up): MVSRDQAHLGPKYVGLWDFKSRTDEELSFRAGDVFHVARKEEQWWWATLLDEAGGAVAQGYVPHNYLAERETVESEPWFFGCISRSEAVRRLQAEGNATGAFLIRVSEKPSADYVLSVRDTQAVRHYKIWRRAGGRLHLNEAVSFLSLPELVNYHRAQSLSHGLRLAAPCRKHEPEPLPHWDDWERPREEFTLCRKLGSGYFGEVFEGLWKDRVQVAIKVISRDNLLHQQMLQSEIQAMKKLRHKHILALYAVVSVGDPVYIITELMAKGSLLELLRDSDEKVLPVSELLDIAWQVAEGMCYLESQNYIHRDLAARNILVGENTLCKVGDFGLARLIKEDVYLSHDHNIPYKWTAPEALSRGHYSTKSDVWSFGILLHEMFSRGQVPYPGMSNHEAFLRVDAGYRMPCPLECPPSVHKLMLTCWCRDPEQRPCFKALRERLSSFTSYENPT

# Set 1
# Target: Bromodomain-containing protein 4, BD1 (BRD4, Homo sapiens, UniProt O60885)
# Effect on: acetyl-histone H4 peptide binding
# Method: AlphaScreen displacement
# Concentration: 50 µM
SMILES,inhibition
NC(=O)NC(=O)CSc1nc2ccccc2c(=O)n1-c1ccccc1F,9.35%
O=C(Nc1ccc2[nH]ncc2c1)c1ccc(Cl)cc1Cl,-1.1%
CC(=O)Nc1ccc(NC(=O)CSc2ccc3nnc(-c4cccc(F)c4)n3n2)cc1,10.6%
COc1cc2ncnc(Nc3cccc(O)c3)c2cc1OC.Cl,13.5%
O=C1Nc2ccc3ncsc3c2C1=CNc1ccc(S(=O)(=O)Nc2ccccn2)cc1,29.1%
NC(=O)c1ccc2ccccc2c1,1.55%
NC(=O)CSc1ccc2nnc(-c3cccc(F)c3)n2n1,12.2%
Cc1nc2ccccn2c1-c1csc(Nc2ccc(S(N)(=O)=O)cc2)n1,12.8%
COc1ccc(-c2[nH]c3ncccc3c2CN2CCOCC2)cc1,23.2%
CCOc1ccc(NC(=S)Nc2ccc3nc[nH]c(=O)c3c2)cc1,26.9%
COc1ccc(-c2c(-c3ccccc3)oc3ncnc(N)c23)cc1,13%
O=C1c2ccccc2-c2nc3nnnn3nc21,12.6%
Cc1[nH]c(/C=C2\C(=O)Nc3ccc(S(=O)(=O)Cc4c(Cl)cccc4Cl)cc32)c(C)c1C(=O)N1CCC[C@@H]1CN1CCCC1,67.7%
O=C1Nc2ccc(Br)cc2C1=NNC(=S)NCC1CCCO1 (centres unmarked),13.1%

# Set 2
# Target: Fibroblast growth factor receptor 2 (FGFR2, Homo sapiens, UniProt P21802)
# UniProt P21802, sequence (whole entry, looked up): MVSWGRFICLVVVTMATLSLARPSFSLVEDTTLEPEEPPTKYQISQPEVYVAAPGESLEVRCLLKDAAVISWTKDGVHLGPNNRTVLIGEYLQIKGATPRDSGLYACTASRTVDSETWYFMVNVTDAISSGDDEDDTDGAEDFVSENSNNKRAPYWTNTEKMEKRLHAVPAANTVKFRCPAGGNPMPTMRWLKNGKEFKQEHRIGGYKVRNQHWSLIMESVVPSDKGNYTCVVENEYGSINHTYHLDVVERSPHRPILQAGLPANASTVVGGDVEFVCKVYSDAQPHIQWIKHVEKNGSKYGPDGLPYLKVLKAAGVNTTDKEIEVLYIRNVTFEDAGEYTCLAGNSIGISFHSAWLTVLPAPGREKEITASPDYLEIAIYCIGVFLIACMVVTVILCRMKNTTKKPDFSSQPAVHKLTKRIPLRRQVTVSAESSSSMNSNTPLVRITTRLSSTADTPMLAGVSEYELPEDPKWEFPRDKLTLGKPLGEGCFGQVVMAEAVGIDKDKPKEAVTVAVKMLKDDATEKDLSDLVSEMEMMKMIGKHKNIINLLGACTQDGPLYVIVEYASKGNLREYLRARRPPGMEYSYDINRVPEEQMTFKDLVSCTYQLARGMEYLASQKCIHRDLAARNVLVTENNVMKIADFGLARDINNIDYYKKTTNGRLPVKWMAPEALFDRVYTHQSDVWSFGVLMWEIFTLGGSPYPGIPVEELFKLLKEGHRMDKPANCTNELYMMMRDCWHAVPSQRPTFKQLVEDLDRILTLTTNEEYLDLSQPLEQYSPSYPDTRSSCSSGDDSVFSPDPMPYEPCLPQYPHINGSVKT
# Effect on: enzyme activity
# Action: inhibitor
# Concentration: 0.5 µM
# Relative to: control
SMILES,remaining activity
O=C1NC(=O)c2c1c1c3ccccc3[nH]c1n1cncc21,91.3%
c1ccc(-c2n[nH]c3c2oc2ccccc23)cc1,97%
O=C1Nc2ccc(Br)cc2/C1=C/c1cc2c([nH]1)CCCC2,87.4%
COc1cccc(-c2cc(=O)c3ccccc3o2)c1N,97.8%
c1ccc2c(-c3ccncc3)c[nH]c2c1,105%
COc1ccc2c(c1)c(C1=C(c3c[nH]c4ccccc34)C(=O)NC1=O)cn2CCCN(C)C,90.7%
O=C1Cc2c([nH]c3ccc(Br)cc23)-c2ccccc2N1,100%
O=C1NC(=O)c2c1c1c3ccccc3[nH]c1c1[nH]c3cc(Br)ccc3c21,98.4%
N#Cc1cnc2cnc(NCc3cccnc3)cc2c1Nc1ccc(F)c(Cl)c1,103%
Cc1ccc(S(=O)(=O)/C=C/C#N)cc1,102%
CCCNC(=O)Nc1ccc(Oc2ncnc3cc(OC)c(OC)cc23)cc1Cl,91.3%
CN(C)S(=O)(=O)c1ccc2c(c1)/C(=C/c1cc3c([nH]1)CCCC3)C(=O)N2,49.3%
O=C1Nc2ccccc2/C1=C\c1c(Cl)[nH]c2ccccc12,102%
O=C(c1cc2cc(O)ccc2[nH]1)c1cc2cc(O)ccc2[nH]1,98.5%
O=c1cc(N2CCOCC2)oc2c(-c3ccccc3)cccc12,95.8%
Oc1cccc(-c2nc(N3CCOCC3)c3oc4ncccc4c3n2)c1,95.7%
CCCCc1c(-c2ccc(OC)cc2)[nH]c2nccnc12,89.5%
O=Nc1c(-c2c(O)[nH]c3cc(Br)ccc23)[nH]c2ccccc12,59.2%

# Set 3
# Species: human
# Matrix: microsomes or S9
# Concentration: 2 µM
# Time: 0.5 h
SMILES,remaining compound
COc1ncnc(N)c1CNCCC1=CCOCC1,63.8%
CC1CC(C)C(C(=O)NCC(Nc2ccccc2)C(C)C)O1 (centres unmarked),1.34%
NS(=O)(=O)C1(CNc2nccc3cccnc23)CCC1,89.2%
O=C(NCCN1CCCCC1)c1cc2ccc3ccccc3c2o1,74.1%
COc1ccc(OC)c2c1s/c(=N\C(=O)C(C)C)n2C,0.152%
O=C(C1CC(=O)N(c2n[nH]c3ccccc23)C1)N1CCC(c2noc3cc(F)ccc23)CC1 (centres unmarked),71.1%
CCc1nc2cc(-c3ccccn3)c(CO)nc2n1Cc1ccc2oc(-c3ccccc3-c3nnn[nH]3)c(Br)c2c1,82.8%
Cc1nc2nc(Cl)n(Cc3ccc(-c4cc(CC(C)C)sc4S(=O)(=O)NC(C)(C)C)cc3)c2cc1-c1ccccc1,1.63%
Cc1ccc(C(=O)NNc2ccccn2)c(Nc2ccc3cn[nH]c3c2)n1,87.8%
O=C1CC(c2cccs2)Cc2nc3[nH]nc(O)c3cc21 (centres unmarked),> 100%
CCn1c(CO)nnc1[C@H]1C[C@@H](NC(=O)CCn2c(C)cccc2=O)C1,> 100%
O=C1N[C@@H](Cc2c[nH]c3ccccc23)C(=O)N2CCC[C@@H]12,53%
COc1ccc(OCCc2c(O)nc(C)c(Br)c2O)cc1Br,0.183%
CCC1(c2ccc(NC(=O)c3c(OC)cccc3OC)cc2)CCC(=O)N=C1O (centres unmarked),72.4%
O=C(C1CCCC1)N1CCn2c(nnc2-c2ccccc2)C1,88.6%
CC(C)NS(=O)(=O)c1ccc2c(c1)nc(-c1ccncc1)n2C(C)C,17%
CC1(C(=O)NC2CCCCCC2)Cn2c(cc3occc32)C(=O)N1Cc1ccco1 (centres unmarked),0.0675%
COc1cc(=O)[nH]cc1C(=O)N1CCC(C)(C)C(c2ccccc2)C1 (centres unmarked),83.5%

# Set 4
# SMILES: CCOCCn1cc(C(=O)Nc2ccc(-n3nc(-c4cccnc4)cc3C(F)(F)F)cn2)ccc1=O
# Concentration: 1 µM
target,effect on,method,remaining binding
"PTK6 (Homo sapiens, UniProt Q13882)",cell-free assay,competition with immobilised ligand,100%
"FES (Homo sapiens, UniProt P07332)",cell-free assay,competition with immobilised ligand,82%
"EGFR (Homo sapiens, UniProt P00533, G719C)",cell-free assay,competition with immobilised ligand,97%
"LIM domain kinase 1 (LIMK1, Homo sapiens, UniProt P53667)",cell-free assay,competition with immobilised ligand,84%
"MAP3K5 (Homo sapiens, UniProt Q99683)",cell-free assay,competition with immobilised ligand,100%
"DAPK2 (Homo sapiens, UniProt Q9UIK4)",cell-free assay,competition with immobilised ligand,93%
"MAP3K7 (Homo sapiens, UniProt O43318)",cell-free assay,competition with immobilised ligand,90%
"DAPK1 (Homo sapiens, UniProt P53355)",cell-free assay,competition with immobilised ligand,100%
"RET (Homo sapiens, UniProt P07949, V804M)",cell-free assay,competition with immobilised ligand,100%
"CDK11B (Homo sapiens, UniProt P21127)",cell-free assay,competition with immobilised ligand,100%
"GSK3A (Homo sapiens, UniProt P49840)",cell-free assay,competition with immobilised ligand,100%
"LRRK2 (Homo sapiens, UniProt Q5S007, G2019S)",cell-free assay,competition with immobilised ligand,100%
"Tyrosine-protein kinase ABL1, phosphorylated (ABL1, Homo sapiens, UniProt P00519, F317I)",binding,,91%
"MAP4K3 (Homo sapiens, UniProt Q8IVH8)",cell-free assay,competition with immobilised ligand,85%
"FLT4 (Homo sapiens, UniProt P35916)",cell-free assay,competition with immobilised ligand,92%
